Measurements collected from several papers.
Numbered parts are unrelated; each lists some results of a single study.
Chain of UniProt P57059 (whole entry, looked up): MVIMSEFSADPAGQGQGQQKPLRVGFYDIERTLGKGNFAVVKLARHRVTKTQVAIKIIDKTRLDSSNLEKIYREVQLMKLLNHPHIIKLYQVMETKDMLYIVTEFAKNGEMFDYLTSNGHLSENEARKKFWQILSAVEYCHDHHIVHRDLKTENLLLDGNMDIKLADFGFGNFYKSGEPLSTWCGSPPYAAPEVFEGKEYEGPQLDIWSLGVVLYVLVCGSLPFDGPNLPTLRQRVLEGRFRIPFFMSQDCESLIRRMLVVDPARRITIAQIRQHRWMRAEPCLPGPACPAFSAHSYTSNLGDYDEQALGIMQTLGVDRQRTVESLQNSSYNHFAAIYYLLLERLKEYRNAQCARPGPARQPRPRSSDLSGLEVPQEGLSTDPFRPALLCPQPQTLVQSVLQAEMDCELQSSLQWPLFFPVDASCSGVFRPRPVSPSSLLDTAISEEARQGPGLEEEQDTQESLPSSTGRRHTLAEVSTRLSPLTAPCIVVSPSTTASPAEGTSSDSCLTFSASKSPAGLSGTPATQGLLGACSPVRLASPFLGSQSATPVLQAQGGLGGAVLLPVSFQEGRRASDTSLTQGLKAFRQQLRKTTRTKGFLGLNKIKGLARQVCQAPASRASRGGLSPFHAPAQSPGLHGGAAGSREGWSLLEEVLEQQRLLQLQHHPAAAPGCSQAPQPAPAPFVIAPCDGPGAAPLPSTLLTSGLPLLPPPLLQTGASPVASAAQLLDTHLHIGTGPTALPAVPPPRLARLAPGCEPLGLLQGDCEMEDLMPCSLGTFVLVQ
Chain of UniProt P51812 (whole entry, looked up): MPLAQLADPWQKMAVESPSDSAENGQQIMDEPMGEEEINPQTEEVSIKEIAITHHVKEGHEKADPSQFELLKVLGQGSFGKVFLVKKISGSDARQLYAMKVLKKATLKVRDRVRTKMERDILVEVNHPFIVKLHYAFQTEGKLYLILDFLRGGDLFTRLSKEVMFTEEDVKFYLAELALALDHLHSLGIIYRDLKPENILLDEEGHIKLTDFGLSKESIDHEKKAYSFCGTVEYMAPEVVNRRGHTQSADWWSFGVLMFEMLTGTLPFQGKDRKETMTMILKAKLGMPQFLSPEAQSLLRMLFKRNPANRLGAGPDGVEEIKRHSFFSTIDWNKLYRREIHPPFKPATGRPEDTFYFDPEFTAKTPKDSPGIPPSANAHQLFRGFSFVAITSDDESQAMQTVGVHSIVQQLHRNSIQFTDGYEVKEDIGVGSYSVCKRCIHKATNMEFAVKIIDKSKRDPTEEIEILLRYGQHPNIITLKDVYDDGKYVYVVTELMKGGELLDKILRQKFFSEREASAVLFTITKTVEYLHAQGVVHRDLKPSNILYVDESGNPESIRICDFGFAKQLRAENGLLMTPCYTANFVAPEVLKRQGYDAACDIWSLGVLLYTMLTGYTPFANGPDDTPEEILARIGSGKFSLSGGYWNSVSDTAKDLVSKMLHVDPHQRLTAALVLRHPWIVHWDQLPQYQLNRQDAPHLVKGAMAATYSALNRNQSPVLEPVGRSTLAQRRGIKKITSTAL
Chain of UniProt Q9P0L2 (whole entry, looked up): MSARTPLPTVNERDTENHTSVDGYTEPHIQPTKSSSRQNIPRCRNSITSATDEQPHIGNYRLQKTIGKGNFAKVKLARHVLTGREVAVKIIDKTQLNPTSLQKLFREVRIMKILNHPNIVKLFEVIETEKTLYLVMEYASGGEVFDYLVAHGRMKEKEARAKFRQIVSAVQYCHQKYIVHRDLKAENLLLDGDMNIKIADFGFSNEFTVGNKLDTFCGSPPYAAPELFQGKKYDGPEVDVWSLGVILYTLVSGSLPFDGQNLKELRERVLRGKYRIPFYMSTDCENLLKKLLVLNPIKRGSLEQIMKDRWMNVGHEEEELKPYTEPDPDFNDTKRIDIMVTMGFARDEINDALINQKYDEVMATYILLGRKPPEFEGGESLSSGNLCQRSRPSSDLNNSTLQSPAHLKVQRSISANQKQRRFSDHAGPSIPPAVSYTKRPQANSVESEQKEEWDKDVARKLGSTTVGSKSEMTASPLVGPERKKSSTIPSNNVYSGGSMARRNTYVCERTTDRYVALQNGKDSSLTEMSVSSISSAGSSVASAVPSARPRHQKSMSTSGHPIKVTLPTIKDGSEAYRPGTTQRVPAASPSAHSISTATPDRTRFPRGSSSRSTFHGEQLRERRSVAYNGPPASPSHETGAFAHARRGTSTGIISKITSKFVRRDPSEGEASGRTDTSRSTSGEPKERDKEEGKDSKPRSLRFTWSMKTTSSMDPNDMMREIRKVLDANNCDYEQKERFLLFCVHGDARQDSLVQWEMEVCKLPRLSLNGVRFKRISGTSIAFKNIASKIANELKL
Chain of UniProt P07947 (whole entry, looked up): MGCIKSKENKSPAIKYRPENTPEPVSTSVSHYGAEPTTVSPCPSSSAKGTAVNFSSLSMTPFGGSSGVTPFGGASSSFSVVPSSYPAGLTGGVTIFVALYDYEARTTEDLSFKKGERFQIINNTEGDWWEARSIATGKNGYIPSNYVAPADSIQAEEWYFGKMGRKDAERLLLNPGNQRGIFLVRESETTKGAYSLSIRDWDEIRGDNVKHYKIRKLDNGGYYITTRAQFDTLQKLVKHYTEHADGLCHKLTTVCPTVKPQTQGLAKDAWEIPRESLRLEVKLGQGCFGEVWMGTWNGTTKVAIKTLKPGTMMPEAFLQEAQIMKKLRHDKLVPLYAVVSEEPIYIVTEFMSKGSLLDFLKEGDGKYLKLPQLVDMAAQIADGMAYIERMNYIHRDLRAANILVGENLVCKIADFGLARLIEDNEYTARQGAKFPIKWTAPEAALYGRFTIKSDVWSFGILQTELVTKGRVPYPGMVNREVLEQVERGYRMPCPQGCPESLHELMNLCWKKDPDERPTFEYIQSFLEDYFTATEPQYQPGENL
Chain of UniProt O14733 (whole entry, looked up): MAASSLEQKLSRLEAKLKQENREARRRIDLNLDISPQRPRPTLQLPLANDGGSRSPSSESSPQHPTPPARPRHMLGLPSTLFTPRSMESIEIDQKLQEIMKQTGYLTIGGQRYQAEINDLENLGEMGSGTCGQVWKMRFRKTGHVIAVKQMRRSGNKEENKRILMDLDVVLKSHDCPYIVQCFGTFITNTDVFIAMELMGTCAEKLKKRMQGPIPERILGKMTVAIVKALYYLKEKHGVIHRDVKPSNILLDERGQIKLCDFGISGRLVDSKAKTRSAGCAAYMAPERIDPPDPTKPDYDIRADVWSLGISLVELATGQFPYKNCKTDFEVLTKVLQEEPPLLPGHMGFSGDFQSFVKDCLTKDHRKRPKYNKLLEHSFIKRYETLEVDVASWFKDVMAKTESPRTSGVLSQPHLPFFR
Chain of UniProt P19525 (whole entry, looked up): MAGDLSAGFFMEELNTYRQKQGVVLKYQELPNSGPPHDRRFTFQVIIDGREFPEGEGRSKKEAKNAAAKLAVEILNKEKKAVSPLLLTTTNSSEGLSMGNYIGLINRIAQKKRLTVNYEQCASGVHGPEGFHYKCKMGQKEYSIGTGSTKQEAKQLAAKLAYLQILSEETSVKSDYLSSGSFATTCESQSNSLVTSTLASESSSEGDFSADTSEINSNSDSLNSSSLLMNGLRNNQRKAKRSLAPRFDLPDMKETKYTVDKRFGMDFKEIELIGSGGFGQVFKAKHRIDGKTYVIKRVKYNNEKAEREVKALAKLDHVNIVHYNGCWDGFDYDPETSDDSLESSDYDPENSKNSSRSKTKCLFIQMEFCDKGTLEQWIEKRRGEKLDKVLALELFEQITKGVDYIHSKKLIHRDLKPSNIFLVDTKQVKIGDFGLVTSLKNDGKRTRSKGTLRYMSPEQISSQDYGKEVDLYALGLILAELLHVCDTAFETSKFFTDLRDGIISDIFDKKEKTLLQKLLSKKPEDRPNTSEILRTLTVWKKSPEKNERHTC
Chain of UniProt P07949 (whole entry, unmodified, looked up): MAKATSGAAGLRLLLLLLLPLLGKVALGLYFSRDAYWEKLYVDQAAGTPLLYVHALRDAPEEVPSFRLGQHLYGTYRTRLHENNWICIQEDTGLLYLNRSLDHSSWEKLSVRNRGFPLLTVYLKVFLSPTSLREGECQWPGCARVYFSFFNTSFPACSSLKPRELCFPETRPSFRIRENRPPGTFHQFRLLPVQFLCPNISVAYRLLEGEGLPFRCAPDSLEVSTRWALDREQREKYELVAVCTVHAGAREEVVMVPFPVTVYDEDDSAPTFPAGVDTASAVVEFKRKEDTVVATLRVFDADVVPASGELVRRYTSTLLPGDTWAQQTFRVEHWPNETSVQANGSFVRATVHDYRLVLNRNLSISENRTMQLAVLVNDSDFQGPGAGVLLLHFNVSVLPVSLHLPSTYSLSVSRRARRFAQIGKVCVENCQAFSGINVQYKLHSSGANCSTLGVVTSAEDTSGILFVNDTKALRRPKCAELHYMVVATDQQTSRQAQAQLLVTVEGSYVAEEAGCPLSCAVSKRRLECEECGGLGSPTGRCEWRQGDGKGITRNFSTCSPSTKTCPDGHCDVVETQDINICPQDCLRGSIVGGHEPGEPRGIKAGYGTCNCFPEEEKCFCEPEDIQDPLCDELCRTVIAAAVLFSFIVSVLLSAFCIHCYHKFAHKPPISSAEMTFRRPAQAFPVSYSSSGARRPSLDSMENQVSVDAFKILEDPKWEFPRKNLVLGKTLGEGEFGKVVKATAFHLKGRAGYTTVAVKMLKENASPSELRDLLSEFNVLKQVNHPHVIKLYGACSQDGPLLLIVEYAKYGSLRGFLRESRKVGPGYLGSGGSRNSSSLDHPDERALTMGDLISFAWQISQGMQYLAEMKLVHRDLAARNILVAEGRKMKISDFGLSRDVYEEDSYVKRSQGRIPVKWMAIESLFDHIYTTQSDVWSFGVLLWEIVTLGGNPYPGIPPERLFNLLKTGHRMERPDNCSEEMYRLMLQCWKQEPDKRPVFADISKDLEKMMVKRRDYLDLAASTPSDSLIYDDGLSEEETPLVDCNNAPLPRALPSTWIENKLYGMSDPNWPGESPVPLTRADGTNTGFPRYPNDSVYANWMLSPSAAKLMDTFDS

Series 1 — cell line: HaCaT; concentration: 100 µM; time: 18 h; quantity: viability
O=C(Nc1ccc([N+](=O)[O-])cc1Cl)c1cc(Cl)ccc1O: 62.1%
NC(=O)c1ncn([C@@H]2O[C@H](CO)[C@@H](O)[C@H]2O)n1: 116%
O=C1CN(/N=C/c2ccc([N+](=O)[O-])o2)C(=O)N1: 70.6%
Cc1cn([C@H]2C=C[C@@H](CO)O2)c(=O)[nH]c1=O: 99.2%
CC[C@H](C)C(=O)O[C@H]1C[C@@H](C)C=C2C=C[C@H](C)[C@H](CC[C@@H]3C[C@@H](O)CC(=O)O3)[C@H]21: 74.9%
CC(C)(C)CC(C)(C)c1ccc(O)c(Cc2ccc(Cl)cc2Cl)c1: 16.4%

Series 2 — method: aptamer microarray, sandwich; form: DNA with 2'F-ANA; medium: in vitro; concentration: 200 nM; added: Cy3 exosite-II aptamer, 400 nM; reading: higher = stronger binding; quantity: mean fluorescence intensity; strand: GGTTGGTGTGGTTGG
Target: Prothrombin, mature alpha-thrombin (F2, Homo sapiens, UniProt P00734)
Setting: whole 15-mer aptamer, many near background
2'F-ANA at 1 2 4 5 7 8 10 14 15: 49.7 a.u.
2'F-ANA at 1 5 8 13 14: 43.2 a.u.
2'F-ANA at 1 3 4 6 7 8 10 11 12 13 14 15: 56.3 a.u.
2'F-ANA at 1 3 4 6 8 13: 226 a.u.
2'F-ANA at 1 2 4 7 8 10 13 14 15: 77.8 a.u.
2'F-ANA at 2 4 5 7 8 9 11 12 13 14 15: 49.4 a.u.
2'F-ANA at 1 3 5 6 7 8 9 12 13 14 15: 51.8 a.u.
2'F-ANA at 2 3 5 6 7 14: 70.6 a.u.

Series 3 — Compound: COc1ccc(Cl)cc1NC(=O)Nc1cc(C)nc2ccccc12; observed: enzyme activity; mode: inhibitor; concentration: 0.5 µM; baseline: control; quantity: remaining activity
MAP3K20 (Homo sapiens, UniProt Q9NYL2): 99.7%
TYRO3 (Homo sapiens, UniProt Q06418): 98.9%
MARK1 (Homo sapiens, UniProt Q9P0L2): 102%
JAK2 (Homo sapiens, UniProt O60674): 99.6%
PAK5 (Homo sapiens, UniProt Q9P286): 85.1%
RPS6KA3 (Homo sapiens, UniProt P51812): 96.2%
TEC (Homo sapiens, UniProt P42680): 110%
FES (Homo sapiens, UniProt P07332): 101%
RPS6KB2 (Homo sapiens, UniProt Q9UBS0): 106%
ERBB2 (Homo sapiens, UniProt P04626): 99.7%
Cyclin-dependent kinase 2, with cyclin E (CDK2, Homo sapiens, UniProt P24941): 94.6%
YES1 (Homo sapiens, UniProt P07947): 90.1%
CLK1 (Homo sapiens, UniProt P49759): 97.6%
CLK2 (Homo sapiens, UniProt P49760): 97.7%
CSNK1E (Homo sapiens, UniProt P49674): 86.4%
EPHA2 (Homo sapiens, UniProt P29317): 100%
PAK1 (Homo sapiens, UniProt Q13153): 94.8%
PRKCZ (Homo sapiens, UniProt Q05513): 99.4%

Series 4 — concentration: 1 µM; quantity: remaining binding
SMILES: CCC(=O)N[C@H]1CC[C@@H](C(=O)N(C)c2ccc(-c3nc4ccccc4o3)cc2)C1
SIK1 (Homo sapiens, UniProt P57059); competition binding: 89%
CDKL3 (Homo sapiens, UniProt Q8IVW4); cell-free assay, competition with immobilised ligand: 100%
EPHA5 (Homo sapiens, UniProt P54756); cell-free assay, competition with immobilised ligand: 78%
EIF2AK2 (Homo sapiens, UniProt P19525); cell-free assay, competition with immobilised ligand: 100%
RET (Homo sapiens, UniProt P07949, M918T); cell-free assay, competition with immobilised ligand: 100%
BMPR1B (Homo sapiens, UniProt O00238); cell-free assay, competition with immobilised ligand: 91%
PDGFRB (Homo sapiens, UniProt P09619); cell-free assay, competition with immobilised ligand: 89%
MAP2K7 (Homo sapiens, UniProt O14733); cell-free assay, competition with immobilised ligand: 82%
PRKD3 (Homo sapiens, UniProt O94806); cell-free assay, competition with immobilised ligand: 100%

Single results of other studies
CCOC(=O)[C@@H]1CSCC(=O)N[C@H](CC)C(=O)N(C)[C@@H](C)C(=O)N[C@@H](CC(C)C)C(=O)N2CCC[C@H]2C(=O)N(CC(C)C)CC(=O)N[C@H](CC(C)C)C(=O)N(C)[C@H](C)C(=O)N[C@@H](CC(C)C)C(=O)N1C
logD (hydrocarbon/water): 0.569

A few entries again (series 3):
Cyclin-dependent kinase 2, with cyclin E (CDK2, Homo sapiens, UniProt P24941): 94.6%
MAP3K20 (Homo sapiens, UniProt Q9NYL2): 99.7%
CLK1 (Homo sapiens, UniProt P49759): 97.6%
CSNK1E (Homo sapiens, UniProt P49674): 86.4%
PAK1 (Homo sapiens, UniProt Q13153): 94.8%
RPS6KA3 (Homo sapiens, UniProt P51812): 96.2%
